Measurements of several laboratories.
Every numbered part comes from another study and shows a few of its results, in no order.

Set 1 — cell line: A-375; concentration: 100 µM; time: 36 h
| Structure (SMILES) | viability [%] |
| --- | --- |
| CCN1CCCC1CNC(=O)c1cc(S(N)(=O)=O)ccc1OC (stereo not drawn) | 108 |
| CN1C[C@@H]2C[C@H]1CN2c1cc2c(cc1F)c(=O)c(C(=O)O)cn2C1CC1 | 83.4 |
| Cc1cc(N)c2ccccc2[n+]1CCCCCCCCCC[n+]1c(C)cc(N)c2ccccc21 | 33.7 |
| OCc1ccccc1 | 105 |
| COc1cc2c(cc1O)CC[C@@H]1[C@@H]2CC[C@]2(C)[C@@H](O)CC[C@@H]12 | 46.5 |
| CC[C@H](C)C(=O)O[C@H]1C[C@@H](C)C=C2C=C[C@H](C)[C@H](CC[C@@H]3C[C@@H](O)CC(=O)O3)[C@H]21 | 35 |
| CNCCC=C1c2ccccc2CCc2ccccc21 | -0.834 |
| C[C@H](CCC(=O)O)[C@H]1CC[C@H]2[C@@H]3CC[C@@H]4C[C@H](O)CC[C@]4(C)[C@H]3CC[C@]12C | 88.8 |

Set 2 — observed: enzyme activity; mode: inhibitor; concentration: 0.5 µM; relative to: control
Target: Ribosomal protein S6 kinase beta-2 (RPS6KB2, Homo sapiens, UniProt Q9UBS0)
Sequence of UniProt Q9UBS0 (whole entry, looked up): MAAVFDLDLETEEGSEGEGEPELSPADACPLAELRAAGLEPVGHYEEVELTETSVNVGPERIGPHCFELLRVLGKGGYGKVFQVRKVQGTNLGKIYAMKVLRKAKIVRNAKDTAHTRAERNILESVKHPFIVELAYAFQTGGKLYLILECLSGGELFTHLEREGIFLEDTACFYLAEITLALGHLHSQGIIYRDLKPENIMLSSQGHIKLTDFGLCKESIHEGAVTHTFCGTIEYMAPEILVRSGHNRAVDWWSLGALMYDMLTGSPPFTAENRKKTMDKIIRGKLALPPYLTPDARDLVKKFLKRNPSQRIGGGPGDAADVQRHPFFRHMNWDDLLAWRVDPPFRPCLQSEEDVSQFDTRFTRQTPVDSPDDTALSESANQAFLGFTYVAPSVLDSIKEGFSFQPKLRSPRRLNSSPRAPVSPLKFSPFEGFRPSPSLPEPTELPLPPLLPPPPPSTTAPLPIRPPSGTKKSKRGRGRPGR
| Structure (SMILES) | remaining activity [%] |
| --- | --- |
| COc1ccc(C(=O)Nc2sc3c(c2C(N)=O)CCCC3)cc1OC | 101 |
| Nc1[nH]nc2nc3ccccc3nc12 | 102 |
| Cc1ccc(Nc2nccc(N(C)c3ccc4c(C)n(C)nc4c3)n2)cc1S(N)(=O)=O | 103 |
| COc1ccc(OC)c2c(=S)c3ccccc3[nH]c12 | 105 |
| Cc1nc(-c2ccccc2)c(-c2ccncc2)o1 | 96 |
| COc1cc2ncnc(Nc3ccc(Oc4ccccc4)cc3)c2cc1OC | 97.4 |
| CCOC(=O)c1c(C)[nH]c(/C=C2\C(=O)Nc3ccccc32)c1C | 103 |
| CC(C)[C@H](CO)Nc1nc(Nc2cc(N)cc(Cl)c2)c2ncn(C(C)C)c2n1 | 98.2 |
| COc1ccc(CNC(=O)Nc2ncc([N+](=O)[O-])s2)cc1 | 93.6 |
| Cn1c2ccccc2c2c3c(c4c5ccccc5n(CCC#N)c4c21)CNC3=O | 21.6 |
| O=S(=O)(c1cccc2cnccc12)N1CCCNCC1 | 81.9 |
| Cc1cccc(-c2[nH]c(C(C)(C)C)nc2-c2ccc3c(c2)OCO3)n1 | 102 |
| COc1cc2ncnc(Nc3ccc(F)c(Cl)c3)c2cc1OCCCN1CCOCC1 | 101 |
| O=C1NC(=O)C(c2cn(CCCO)c3ncccc23)=C1c1cnccn1 | 94.7 |
| O=c1c2ccccc2[nH]c(=S)n1CCN1CCC(=C(c2ccc(F)cc2)c2ccc(F)cc2)CC1 | 102 |
| Nc1ccc2ncnc(NCCc3ccc(Oc4ccccc4)cc3)c2c1 | 99.2 |

Set 3 — cell line: mouse MPNST tumor cells; method: high-content immunofluorescence imaging; item: nuclear SOX9; concentration: 10 µM; time: 12 h; notes: mean of 2 replicates; relative to: DMSO control; direction: higher = more nuclear SOX9
| Structure (SMILES) | nuclear SOX9 intensity |
| --- | --- |
| O=C(Nc1nc2cc(C(F)(F)F)cc(NC3CC3)n2n1)c1cccnc1 | 147 % of DMSO |
| CCCCOc1cc(C(=O)NCCN(CC)CC)c2ccccc2n1 | 166 % of DMSO |
| Clc1cccc(Cl)c1CSc1nnc(-c2ccc[nH]2)o1 | 88.3 % of DMSO |
| Cc1ccc(NC(=O)c2cccc(C(C)(C)C#N)c2)cc1Nc1ccc2ncn(C)c(=O)c2c1 | 42.8 % of DMSO |
| O=C(Nc1ccc(N2CCC(C(=O)N3CCOCC3)CC2)cc1)c1cnc(Oc2ccccc2)nc1 | 98.9 % of DMSO |
| CNc1cc2c(Nc3cccc(Br)c3)ncnc2cn1 | 98.1 % of DMSO |
| C=C1C(=O)O[C@@H]2C[C@@]3(C)CCC[C@H](C)C3=C[C@H]12 | 143 % of DMSO |

Set 4 — observed: AlphaScreen signal; method: AlphaScreen counter screen; sample: His6 peptide without bromodomain; concentration: 50 µM; notes: assay interference check
| SMILES | inhibition [%] |
| --- | --- |
| O=c1[nH]c(CN2CCC(O)C2)nc2c1SC1C=CC(c3ccc(O)cc3)=CC21 (stereo not drawn) | 25.6 |
| O=C1NCCCc2c1oc1ccc(O)cc21 | 18.4 |
| Nc1nc(NCc2ccc(F)cc2)c2nc[nH]c2n1 | 17.8 |
| COc1cc(O)c2c(c1)oc(=O)c1c3cc(O)c(O)cc3oc21 | 13.9 |
| COc1cc(N2CCC(N3CCN(C)CC3)CC2)ccc1Nc1ncc(Cl)c(Nc2ccccc2P(C)(C)=O)n1 | 27.7 |

Repeated from above (set 3):
| Structure (SMILES) | nuclear SOX9 intensity |
| --- | --- |
| O=C(Nc1ccc(N2CCC(C(=O)N3CCOCC3)CC2)cc1)c1cnc(Oc2ccccc2)nc1 | 98.9 % of DMSO |
| Cc1ccc(NC(=O)c2cccc(C(C)(C)C#N)c2)cc1Nc1ccc2ncn(C)c(=O)c2c1 | 42.8 % of DMSO |
| Clc1cccc(Cl)c1CSc1nnc(-c2ccc[nH]2)o1 | 88.3 % of DMSO |
| C=C1C(=O)O[C@@H]2C[C@@]3(C)CCC[C@H](C)C3=C[C@H]12 | 143 % of DMSO |
| O=C(Nc1nc2cc(C(F)(F)F)cc(NC3CC3)n2n1)c1cccnc1 | 147 % of DMSO |
